Results collected from several papers.
Several values in a cell are separate wells, animals, samples, runs or records. ± marks the error that the study gave.
APP amyloid-beta peptide: Amyloid-beta precursor protein, amyloid-beta peptide (APP, Homo sapiens, UniProt P05067)
RPA1 N-terminal domain: Replication protein A 70 kDa DNA-binding subunit, N-terminal domain (RPA1, Homo sapiens, UniProt P27694)
ESR1: Estrogen receptor (ESR1, Homo sapiens, UniProt P03372)

By UniProt entry, the sequences of proteins in these tests, tags left out. Residues count along the entry.
UniProt P05067, whole entry, looked up: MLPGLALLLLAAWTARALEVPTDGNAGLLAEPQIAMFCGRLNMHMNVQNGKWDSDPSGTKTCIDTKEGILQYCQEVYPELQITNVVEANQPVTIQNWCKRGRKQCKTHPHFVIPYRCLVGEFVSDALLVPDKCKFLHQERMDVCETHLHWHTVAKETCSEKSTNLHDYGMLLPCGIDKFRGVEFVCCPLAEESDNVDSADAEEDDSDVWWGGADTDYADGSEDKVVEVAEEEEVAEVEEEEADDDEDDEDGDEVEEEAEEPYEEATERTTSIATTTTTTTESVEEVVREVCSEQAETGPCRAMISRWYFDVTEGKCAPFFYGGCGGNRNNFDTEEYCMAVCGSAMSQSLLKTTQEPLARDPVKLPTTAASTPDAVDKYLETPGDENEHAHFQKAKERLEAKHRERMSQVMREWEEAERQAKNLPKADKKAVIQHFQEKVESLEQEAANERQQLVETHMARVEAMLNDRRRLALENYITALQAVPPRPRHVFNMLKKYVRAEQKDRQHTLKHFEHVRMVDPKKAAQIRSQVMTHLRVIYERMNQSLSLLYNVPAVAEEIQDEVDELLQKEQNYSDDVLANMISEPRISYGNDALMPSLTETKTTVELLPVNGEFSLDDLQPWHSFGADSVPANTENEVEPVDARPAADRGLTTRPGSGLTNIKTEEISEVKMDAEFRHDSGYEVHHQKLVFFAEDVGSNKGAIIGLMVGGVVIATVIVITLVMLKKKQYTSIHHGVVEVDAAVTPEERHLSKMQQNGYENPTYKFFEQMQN
UniProt P03372, whole entry: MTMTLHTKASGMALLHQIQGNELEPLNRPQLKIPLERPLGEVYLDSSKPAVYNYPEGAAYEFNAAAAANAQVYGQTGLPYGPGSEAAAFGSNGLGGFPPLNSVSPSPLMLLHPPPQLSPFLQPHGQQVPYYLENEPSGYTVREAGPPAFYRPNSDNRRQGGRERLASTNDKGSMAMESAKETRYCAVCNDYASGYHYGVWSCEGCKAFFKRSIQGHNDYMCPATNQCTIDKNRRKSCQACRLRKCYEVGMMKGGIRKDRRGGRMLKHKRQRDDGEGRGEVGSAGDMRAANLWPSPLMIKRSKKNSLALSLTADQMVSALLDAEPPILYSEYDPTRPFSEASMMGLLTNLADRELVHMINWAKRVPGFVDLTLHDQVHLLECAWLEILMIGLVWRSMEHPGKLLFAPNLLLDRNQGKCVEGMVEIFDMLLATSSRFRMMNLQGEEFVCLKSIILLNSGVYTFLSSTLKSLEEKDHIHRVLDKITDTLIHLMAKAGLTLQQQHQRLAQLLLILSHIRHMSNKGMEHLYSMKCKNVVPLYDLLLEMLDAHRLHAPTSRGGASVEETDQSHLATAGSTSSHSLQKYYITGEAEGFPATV
UniProt P50579, whole entry: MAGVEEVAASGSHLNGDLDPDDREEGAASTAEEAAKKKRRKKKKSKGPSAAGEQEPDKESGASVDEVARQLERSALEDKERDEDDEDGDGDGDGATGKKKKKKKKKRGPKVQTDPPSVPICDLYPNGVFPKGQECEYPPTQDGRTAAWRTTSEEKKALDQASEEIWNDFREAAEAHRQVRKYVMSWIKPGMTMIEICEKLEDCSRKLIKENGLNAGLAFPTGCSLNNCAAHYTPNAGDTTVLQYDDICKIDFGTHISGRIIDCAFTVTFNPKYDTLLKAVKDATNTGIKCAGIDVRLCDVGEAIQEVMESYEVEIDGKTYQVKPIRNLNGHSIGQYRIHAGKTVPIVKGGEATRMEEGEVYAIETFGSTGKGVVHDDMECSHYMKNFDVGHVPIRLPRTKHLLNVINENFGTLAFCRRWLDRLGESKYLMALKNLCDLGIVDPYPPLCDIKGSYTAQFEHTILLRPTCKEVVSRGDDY
UniProt P26038, whole entry, looked up: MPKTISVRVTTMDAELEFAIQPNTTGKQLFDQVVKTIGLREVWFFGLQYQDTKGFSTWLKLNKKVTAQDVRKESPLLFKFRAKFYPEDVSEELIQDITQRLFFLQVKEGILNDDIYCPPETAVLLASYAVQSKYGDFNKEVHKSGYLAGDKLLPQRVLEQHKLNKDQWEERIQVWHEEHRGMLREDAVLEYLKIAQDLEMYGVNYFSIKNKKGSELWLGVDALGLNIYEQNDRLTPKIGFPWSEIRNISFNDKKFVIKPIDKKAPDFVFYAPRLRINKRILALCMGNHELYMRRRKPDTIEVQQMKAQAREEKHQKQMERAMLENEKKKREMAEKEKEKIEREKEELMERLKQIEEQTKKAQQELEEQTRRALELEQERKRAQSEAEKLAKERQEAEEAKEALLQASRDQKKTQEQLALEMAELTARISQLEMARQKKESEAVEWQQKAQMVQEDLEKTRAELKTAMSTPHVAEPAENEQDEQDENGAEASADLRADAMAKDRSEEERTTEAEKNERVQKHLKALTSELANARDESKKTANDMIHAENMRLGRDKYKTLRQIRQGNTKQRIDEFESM
UniProt Q8IXJ6, whole entry, looked up: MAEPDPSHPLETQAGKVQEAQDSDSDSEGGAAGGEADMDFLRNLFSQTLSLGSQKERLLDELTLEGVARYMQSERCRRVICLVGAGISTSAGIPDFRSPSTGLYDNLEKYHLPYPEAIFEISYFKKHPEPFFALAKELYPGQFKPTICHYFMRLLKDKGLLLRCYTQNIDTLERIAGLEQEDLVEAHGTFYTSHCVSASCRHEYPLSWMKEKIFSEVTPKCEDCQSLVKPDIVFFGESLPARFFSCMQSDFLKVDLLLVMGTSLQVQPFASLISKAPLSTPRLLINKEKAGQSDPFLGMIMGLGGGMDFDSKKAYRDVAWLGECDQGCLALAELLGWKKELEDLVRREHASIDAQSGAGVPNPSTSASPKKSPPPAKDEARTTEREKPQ
UniProt A0A8I3MXG6, 1-394: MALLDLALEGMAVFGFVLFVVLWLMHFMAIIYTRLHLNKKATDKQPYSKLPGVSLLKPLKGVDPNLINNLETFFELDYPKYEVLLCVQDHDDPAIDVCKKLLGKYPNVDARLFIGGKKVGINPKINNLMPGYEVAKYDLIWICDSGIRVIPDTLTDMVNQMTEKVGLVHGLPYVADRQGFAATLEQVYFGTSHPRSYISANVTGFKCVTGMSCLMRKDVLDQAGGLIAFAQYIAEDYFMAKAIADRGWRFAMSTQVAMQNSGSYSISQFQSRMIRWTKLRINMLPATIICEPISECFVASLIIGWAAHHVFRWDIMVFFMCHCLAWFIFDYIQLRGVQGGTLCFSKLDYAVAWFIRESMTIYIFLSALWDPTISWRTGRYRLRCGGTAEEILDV
UniProt P31749, whole entry: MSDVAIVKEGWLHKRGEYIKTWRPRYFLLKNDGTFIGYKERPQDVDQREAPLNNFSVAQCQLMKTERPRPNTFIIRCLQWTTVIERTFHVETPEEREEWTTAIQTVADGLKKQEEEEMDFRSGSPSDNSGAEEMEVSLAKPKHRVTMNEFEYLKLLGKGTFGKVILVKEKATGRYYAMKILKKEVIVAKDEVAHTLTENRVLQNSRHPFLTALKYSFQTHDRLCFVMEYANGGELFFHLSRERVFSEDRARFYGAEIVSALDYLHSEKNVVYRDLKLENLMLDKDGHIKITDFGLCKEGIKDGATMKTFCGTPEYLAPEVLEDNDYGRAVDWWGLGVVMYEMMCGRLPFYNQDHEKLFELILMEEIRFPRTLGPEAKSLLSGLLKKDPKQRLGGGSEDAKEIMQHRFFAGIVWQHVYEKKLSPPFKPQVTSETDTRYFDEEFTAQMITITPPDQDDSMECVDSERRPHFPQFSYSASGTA
UniProt Q07812, whole entry: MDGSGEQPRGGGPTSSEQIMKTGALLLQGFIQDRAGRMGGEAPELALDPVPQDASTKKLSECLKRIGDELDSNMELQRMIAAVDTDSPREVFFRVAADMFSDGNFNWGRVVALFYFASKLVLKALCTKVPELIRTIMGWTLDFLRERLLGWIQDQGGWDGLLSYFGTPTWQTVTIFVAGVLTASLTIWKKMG
UniProt P53779, 1-422 isoform 2: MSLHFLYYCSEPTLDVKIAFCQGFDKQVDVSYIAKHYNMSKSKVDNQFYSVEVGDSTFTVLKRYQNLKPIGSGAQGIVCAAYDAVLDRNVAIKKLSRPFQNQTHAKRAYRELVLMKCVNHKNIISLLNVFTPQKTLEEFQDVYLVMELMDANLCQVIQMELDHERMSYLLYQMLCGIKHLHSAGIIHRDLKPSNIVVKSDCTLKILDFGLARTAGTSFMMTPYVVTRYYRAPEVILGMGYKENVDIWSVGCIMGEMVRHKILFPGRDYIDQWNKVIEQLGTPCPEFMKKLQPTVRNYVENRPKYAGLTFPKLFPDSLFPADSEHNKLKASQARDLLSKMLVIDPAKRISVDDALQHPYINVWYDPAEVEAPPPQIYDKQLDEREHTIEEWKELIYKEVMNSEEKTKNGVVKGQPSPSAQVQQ
UniProt A0A381MCS3, 1-451: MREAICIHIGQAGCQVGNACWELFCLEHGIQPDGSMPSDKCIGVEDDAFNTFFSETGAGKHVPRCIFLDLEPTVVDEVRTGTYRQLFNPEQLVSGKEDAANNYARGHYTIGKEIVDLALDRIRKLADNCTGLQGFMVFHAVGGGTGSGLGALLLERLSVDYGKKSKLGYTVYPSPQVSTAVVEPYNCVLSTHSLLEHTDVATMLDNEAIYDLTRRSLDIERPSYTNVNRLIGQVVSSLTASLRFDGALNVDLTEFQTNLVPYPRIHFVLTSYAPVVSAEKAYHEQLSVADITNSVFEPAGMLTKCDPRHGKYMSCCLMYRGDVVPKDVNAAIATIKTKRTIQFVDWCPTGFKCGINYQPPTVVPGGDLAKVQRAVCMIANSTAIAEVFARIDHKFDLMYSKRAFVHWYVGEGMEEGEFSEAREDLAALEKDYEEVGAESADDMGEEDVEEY
UniProt A4HTR0, 1-443: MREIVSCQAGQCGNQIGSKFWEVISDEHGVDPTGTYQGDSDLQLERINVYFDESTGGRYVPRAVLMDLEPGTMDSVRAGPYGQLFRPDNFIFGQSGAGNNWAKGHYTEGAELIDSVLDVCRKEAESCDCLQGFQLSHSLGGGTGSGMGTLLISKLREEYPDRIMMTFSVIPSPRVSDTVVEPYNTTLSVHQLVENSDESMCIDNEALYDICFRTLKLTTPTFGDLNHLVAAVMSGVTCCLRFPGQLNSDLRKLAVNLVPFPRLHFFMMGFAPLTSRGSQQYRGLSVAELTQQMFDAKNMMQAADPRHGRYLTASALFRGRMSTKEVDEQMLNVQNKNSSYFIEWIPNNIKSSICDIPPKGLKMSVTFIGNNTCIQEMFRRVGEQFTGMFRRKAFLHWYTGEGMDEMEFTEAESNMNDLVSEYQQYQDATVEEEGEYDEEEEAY
UniProt P31424, 21-1203 limits assumed: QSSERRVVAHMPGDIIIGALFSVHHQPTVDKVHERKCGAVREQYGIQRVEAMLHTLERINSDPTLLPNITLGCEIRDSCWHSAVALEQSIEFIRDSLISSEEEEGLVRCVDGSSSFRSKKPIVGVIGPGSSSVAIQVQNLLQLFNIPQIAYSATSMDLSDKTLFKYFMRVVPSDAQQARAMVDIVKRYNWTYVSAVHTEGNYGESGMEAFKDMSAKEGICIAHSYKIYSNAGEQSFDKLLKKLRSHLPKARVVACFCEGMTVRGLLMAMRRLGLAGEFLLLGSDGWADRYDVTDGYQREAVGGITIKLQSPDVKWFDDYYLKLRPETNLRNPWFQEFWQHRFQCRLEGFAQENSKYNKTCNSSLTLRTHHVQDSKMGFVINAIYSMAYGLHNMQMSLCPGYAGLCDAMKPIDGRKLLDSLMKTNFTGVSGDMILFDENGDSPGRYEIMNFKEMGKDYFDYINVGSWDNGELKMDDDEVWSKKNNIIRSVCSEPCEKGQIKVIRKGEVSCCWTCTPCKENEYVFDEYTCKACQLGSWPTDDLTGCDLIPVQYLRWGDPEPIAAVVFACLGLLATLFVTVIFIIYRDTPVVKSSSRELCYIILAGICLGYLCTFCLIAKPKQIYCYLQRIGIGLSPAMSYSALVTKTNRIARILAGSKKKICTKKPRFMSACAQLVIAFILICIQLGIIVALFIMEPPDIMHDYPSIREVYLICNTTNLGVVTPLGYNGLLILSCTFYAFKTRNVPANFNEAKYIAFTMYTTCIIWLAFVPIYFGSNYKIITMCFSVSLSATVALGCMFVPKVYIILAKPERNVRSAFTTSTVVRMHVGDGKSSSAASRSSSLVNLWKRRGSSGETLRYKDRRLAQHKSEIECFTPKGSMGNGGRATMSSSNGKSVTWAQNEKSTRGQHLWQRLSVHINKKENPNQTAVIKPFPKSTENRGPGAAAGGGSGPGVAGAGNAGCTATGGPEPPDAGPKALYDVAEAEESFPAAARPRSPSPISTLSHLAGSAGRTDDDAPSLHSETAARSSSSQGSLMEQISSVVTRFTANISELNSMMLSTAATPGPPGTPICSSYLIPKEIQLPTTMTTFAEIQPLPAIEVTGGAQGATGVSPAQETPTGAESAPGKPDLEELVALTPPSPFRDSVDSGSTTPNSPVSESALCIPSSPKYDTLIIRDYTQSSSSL

The IC50 of `COC(=O)/C(=C/c1c[nH]c2ccc(OC)cc12)c1ccc(NS(C)(=O)=O)cc1` is reported as > 20 µM (APP amyloid-beta peptide; Aβ42 oligomerisation, ELISA).
`C=CC(=O)N1CCC(c2cc(Nc3cc4n(n3)CCOC4)c3ncnn3c2)C1` (single isomer, unassigned) gave a maximum inhibition of 27.1% (Ramos; calcium flux, FLIPR; 2 h preincubation, added: anti-IgM).
With `Cc1ccc(C(=O)Nc2ccccc2C(=O)O)cc1S(=O)(=O)Nc1ccc(C(C)C)cc1` the Kd was 76 ± 5.5 µM (RPA1 N-terminal domain; binding, fluorescence polarisation competition; added: FITC-ATRIP probe).
`Nc1ccc(Cl)c2cccnc12` gave an IC50 of > 15 µM (Methionine aminopeptidase 2 (Homo sapiens, UniProt P50579); enzyme activity, inhibitor, coupled; added: Met-Pro-pNA substrate, Mn2+ 10 µM).
The dose-normalised AUC(0-t) of `Nc1ncc(-c2ccc3ncnc(N4CCc5cc(F)c(Cl)cc54)c3c2)cn1` is reported as 580 mg·h/mL (CD1 mouse, brain; intravenous, 5 mg/kg).
For `O=C(Nc1ccc(-c2nc3ccccc3[nH]2)cc1)c1ccccc1Br`, the IC50 was > 100 µM (Moesin, with CD44 (Homo sapiens, UniProt P26038); MSN-CD44 interaction, inhibitor, TR-FRET; added: CD44).
`OC[C@H]1[C@@H](O)[C@H](O)[C@@H](O)CN1CCCCCOCCc1ccsc1` has an IC50 of 0.001 µM (Beta-glucosidase (GBA2, Homo sapiens, UniProt Q9HCG7); inhibitor, 4-methylumbelliferyl glucoside; HEK293T overexpressing GBA2 homogenate).
With `O=C(CCCn1c(=S)[nH]c2ccccc2c1=O)N1CCN(c2cccc([N+](=O)[O-])c2)CC1` the IC50 was 8.2 µM (ESR1; reporter gene, coactivator binding inhibitor, luciferase reporter; HEC-1 cells transfected with ERα; toxicity up to 50% at 20 µM, added: estradiol 1 nM).
With `CCCCCCCCCCCCNC(=S)NCCCC[C@H](NC(=O)CCCCCCCC)C(=O)N[C@H](C)C(=O)N[C@@H](CCCNC(=N)N)C(N)=O` the IC50 was 0.51 ± 0.03 µM (NAD-dependent protein deacetylase sirtuin-2 (SIRT2, Homo sapiens, UniProt Q8IXJ6); deacetylation, inhibitor; NAD+ 500 µM, added: acetylated peptide 50 µM).
For `CCOC(=O)C1=C(C)NC2=C(C(=O)CC(C)(C)C2)C1c1ccc(OCC(=O)NN=Cc2cccc(C=O)c2)cc1OCC(=O)NN=Cc1cccc(C=O)c1` (stereo not shown), “inhibition zone diameter” read 2.1 ± 0.1 mm (Pseudomonas fluorescens; concentration not given, 24 h).
`NC(=O)c1cn(-c2ccc(F)cc2)c2ccc(CN3CCCSCC3)cc2c1=O` gave an IC50 of 0.138 µM (Metabotropic glutamate receptor 2 (Grm2, Rattus norvegicus, UniProt P31421); calcium mobilization, negative allosteric modulator).
`O=C(CC1Cc2ccccc2C1)N[C@H](CN1CC[C@@H](F)C1)[C@H](O)c1ccc2c(c1)OCCO2` has an IC50 of 0.0066 µM (Ceramide glucosyltransferase (UGCG, Canis lupus familiaris, UniProt A0A8I3MXG6); inhibitor, refers to: glucosylceramide; MDCK; 24 h).
`COc1ccc2[nH]cc(/C=C/c3cccc(F)c3)c2c1` has an IC50 of > 20 µM (APP amyloid-beta peptide; Aβ42 oligomerisation, ELISA).
The IC50 of `Cc1ccccc1-c1ccc2c(c1)sc1nc(CCC(=O)O)[nH]c(=O)c12` is reported as 43 µM (Fibroblast growth factor receptor 1 (FGFR1, Homo sapiens, UniProt P11362); kinase activity, inhibitor, AlphaScreen; added: biotinylated peptide substrate).
For `Cc1cc(-c2ccc(C3(c4ccc(Cl)cc4)CCNCC3)cc2)ccn1`, the IC50 was 0.724 µM (RAC-alpha serine/threonine-protein kinase (AKT1, Homo sapiens, UniProt P31749); kinase activity, inhibitor, radiometric HotSpot; added: ATP 10 µM).
For `CC(C)NC(=O)CSc1nc2ccc(NC(=O)CSc3cc(Cl)ccc3Cl)cc2s1`, the IC50 was 6.1 µM (ESR1; reporter gene, antagonist; HEC-1 transfected ERα luciferase reporter).
For `O=C(Nc1ccc(-c2cccc3ncccc23)cc1)C1CCN(S(=O)(=O)c2ccccc2Cl)CC1`, the IC50 was 0.002 µM (Bifunctional epoxide hydrolase 2 (Ephx2, Rattus norvegicus, UniProt P80299); enzyme activity, inhibitor, fluorescence; rat; pH 7.4, 37 °C).
For `O=C(O)CNC(=O)c1cc(C(=O)O)cc([C@H]2CCN[C@@H]2C(=O)O)c1`, the IC50 was 44 µM (kainate receptor (rat); binding, radioligand binding; rat cortical synaptosomes; added: [3H]kainate).
The Kd of `Cc1ccc(C(=O)Nc2ccccc2C(=O)O)cc1S(=O)(=O)NC1CCCCCC1` is reported as 110 ± 4 µM (RPA1 N-terminal domain; binding, fluorescence polarisation competition; added: FITC-ATRIP probe).
For `Cc1cccc(C2NC(=O)c3c(Cl)cccc3N2)c1` (racemic), the Kd was 11 ± 2 µM (Protein polybromo-1, BD2 (PBRM1, Homo sapiens, UniProt Q86U86, V269I); ITC; mutant).
Under “ubiquitination TR-FRET signal AUC”, `CCOC(=O)/C=C/CNCCCCN1c2ccccc2CCc2ccc(Cl)cc21` is recorded as 421000 a.u. (E3 ubiquitin-protein ligase HECW2 (HECW2, Homo sapiens, UniProt Q9P2P5); inhibitor, Ub-TR-FRET; 33.33 µM, 1 h preincubation, DMSO up to 2%, added: ATP 2 mM; higher = more ubiquitination).
`COc1cc(C(=O)N2CCC(N3CCN(C)CC3)CC2)ccc1Nc1ncc2c(n1)N(C1CCCC1)c1ccccc1C(=O)N2C` has an IC50 of 0.095 ± 0.01 µM (Leucine-rich repeat serine/threonine-protein kinase 2 (LRRK2, Homo sapiens, UniProt Q5S007); kinase activity, Adapta).
For `OC(CN1CCNCC1)Cn1c2ccccc2c2cc(Cl)ccc21` (stereo not shown), the IC50 was 7.7 µM (Apoptosis regulator BAX (BAX, Homo sapiens, UniProt Q07812); membrane permeabilization, inhibitor; ANTS/DPX liposomes; 400 nM BAX, added: 30 nM tBID).
`COC(=O)[C@@]1(C)C=C(C(=O)Nc2cccc(C(=O)NC34CC(Nc5nccc(-c6cccnc6)n5)(C3)C4)c2)C(=O)CC1` gave a remaining activity of 1.04 fraction of control (Mitogen-activated protein kinase 10 (MAPK10, Homo sapiens, UniProt P53779); enzyme activity, inhibitor; 0.0007527 µM).
For `Cc1ncsc1-c1ccc([C@H](C)NC(=O)[C@@H]2C[C@@H](O)CN2C(=O)[C@@H](NC(=O)CCCCCCC(=O)N2CCN(C[C@]3(C)CCC(c4ccc(Cl)cc4)=C(CN4CCN(c5ccc(C(=O)NS(=O)(=O)c6ccc(N[C@H](CCN7CCOCC7)CSc7ccccc7)c(S(=O)(=O)C(F)(F)F)c6)cc5)CC4)C3)CC2)C(C)(C)C)cc1`, “senescent cell accumulation” read “decreased” (STAM mice NASH-HCC model, liver; day 150, treated days 90-150).
For `COC(=O)[C@@H]1C(C=Nc2cncnc2NC(C)=O)=Cc2cc3c(cc2[C@H]1c1cc(OC)c(OC)c(OC)c1)OCO3`, the IC50 was 0.78 µM and 0.8 µM (Tubulin alpha/beta heterodimer (Leishmania infantum, UniProt A0A381MCS3+A4HTR0); tubulin polymerization, inhibitor; 37 °C, added: tubulin 1.2 mg/mL).
The IC50 of `N#Cc1cnc(Nc2nc3ccccc3o2)nc1-c1ccccn1` is reported as > 10 µM (Metabotropic glutamate receptor 5 (Grm5, Rattus norvegicus, UniProt P31424); calcium mobilization, negative allosteric modulator; added: glutamate EC80).
`S=c1[nH]c(-c2ccccc2)cs1` has an IC50 of 4.56 ± 0.62 µM (Carbonic anhydrase 2 (CA2, Homo sapiens, UniProt P00918); inhibitor).

Excerpt of the above:
With `O=C(CCCn1c(=S)[nH]c2ccccc2c1=O)N1CCN(c2cccc([N+](=O)[O-])c2)CC1` the IC50 was 8.2 µM (ESR1; reporter gene, coactivator binding inhibitor, luciferase reporter; HEC-1 cells transfected with ERα; toxicity up to 50% at 20 µM, added: estradiol 1 nM).
`COc1ccc2[nH]cc(/C=C/c3cccc(F)c3)c2c1` has an IC50 of > 20 µM (APP amyloid-beta peptide; Aβ42 oligomerisation, ELISA).
For `CCOC(=O)C1=C(C)NC2=C(C(=O)CC(C)(C)C2)C1c1ccc(OCC(=O)NN=Cc2cccc(C=O)c2)cc1OCC(=O)NN=Cc1cccc(C=O)c1` (stereo not shown), “inhibition zone diameter” read 2.1 ± 0.1 mm (Pseudomonas fluorescens; concentration not given, 24 h).
